Results gathered from unrelated publications.
Parts stem from different laboratories: compare values within a part only. Values joined by “and” are separate records of one study, mostly repeats; a detail may differ.
Sequence of UniProt O96013 (whole entry, looked up): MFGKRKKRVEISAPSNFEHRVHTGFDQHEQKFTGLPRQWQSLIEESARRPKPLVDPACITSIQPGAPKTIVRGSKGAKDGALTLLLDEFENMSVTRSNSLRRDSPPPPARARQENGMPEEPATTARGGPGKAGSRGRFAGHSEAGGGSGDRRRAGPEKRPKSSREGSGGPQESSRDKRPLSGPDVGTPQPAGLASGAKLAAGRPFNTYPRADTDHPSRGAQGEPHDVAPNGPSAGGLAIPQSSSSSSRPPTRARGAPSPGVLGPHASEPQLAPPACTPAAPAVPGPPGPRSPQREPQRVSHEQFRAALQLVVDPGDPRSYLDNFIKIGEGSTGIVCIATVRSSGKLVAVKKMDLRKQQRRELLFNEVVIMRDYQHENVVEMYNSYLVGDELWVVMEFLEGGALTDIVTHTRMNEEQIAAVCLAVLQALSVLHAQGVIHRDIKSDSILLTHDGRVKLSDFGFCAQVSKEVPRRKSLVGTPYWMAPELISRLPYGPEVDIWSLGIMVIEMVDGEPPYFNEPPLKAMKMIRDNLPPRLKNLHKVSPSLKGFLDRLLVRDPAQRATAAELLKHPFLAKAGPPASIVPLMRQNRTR
Sequence of UniProt Q9HC98 (whole entry, looked up): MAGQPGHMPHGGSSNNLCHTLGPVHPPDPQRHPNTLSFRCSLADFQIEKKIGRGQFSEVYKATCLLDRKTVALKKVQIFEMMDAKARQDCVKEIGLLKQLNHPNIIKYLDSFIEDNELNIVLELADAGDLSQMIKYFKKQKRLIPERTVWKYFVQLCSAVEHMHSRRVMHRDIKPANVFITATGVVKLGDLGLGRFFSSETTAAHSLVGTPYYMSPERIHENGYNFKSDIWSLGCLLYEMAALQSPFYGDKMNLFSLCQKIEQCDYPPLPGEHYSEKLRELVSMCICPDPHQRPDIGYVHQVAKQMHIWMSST
Sequence of UniProt P42685 (whole entry, looked up): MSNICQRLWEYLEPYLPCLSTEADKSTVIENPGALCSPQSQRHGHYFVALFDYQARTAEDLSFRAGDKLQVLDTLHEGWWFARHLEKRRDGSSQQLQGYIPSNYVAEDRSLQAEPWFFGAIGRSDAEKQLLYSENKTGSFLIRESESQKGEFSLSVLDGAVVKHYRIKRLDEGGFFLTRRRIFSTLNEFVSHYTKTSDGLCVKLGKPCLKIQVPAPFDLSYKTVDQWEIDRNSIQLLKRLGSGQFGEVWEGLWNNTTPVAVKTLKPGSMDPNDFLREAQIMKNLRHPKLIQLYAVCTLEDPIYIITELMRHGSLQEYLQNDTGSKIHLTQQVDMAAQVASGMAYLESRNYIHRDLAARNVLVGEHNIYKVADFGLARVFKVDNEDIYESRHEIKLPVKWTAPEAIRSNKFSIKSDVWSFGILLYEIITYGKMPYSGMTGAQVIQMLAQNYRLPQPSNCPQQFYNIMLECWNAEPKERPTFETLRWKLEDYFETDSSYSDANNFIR
Sequence of UniProt O14733 (whole entry, looked up): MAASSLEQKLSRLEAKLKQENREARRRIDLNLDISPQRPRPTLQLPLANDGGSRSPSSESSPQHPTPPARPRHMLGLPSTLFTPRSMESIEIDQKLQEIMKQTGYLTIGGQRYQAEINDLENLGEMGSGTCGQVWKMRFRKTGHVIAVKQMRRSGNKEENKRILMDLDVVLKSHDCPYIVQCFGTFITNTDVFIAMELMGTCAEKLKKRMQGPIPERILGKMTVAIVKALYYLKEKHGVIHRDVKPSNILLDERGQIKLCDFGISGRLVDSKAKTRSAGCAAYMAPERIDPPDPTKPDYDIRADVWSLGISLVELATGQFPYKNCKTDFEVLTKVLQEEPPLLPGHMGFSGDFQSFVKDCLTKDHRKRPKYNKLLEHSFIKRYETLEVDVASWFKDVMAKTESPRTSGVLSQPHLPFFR
Sequence of UniProt O94806 (whole entry, looked up): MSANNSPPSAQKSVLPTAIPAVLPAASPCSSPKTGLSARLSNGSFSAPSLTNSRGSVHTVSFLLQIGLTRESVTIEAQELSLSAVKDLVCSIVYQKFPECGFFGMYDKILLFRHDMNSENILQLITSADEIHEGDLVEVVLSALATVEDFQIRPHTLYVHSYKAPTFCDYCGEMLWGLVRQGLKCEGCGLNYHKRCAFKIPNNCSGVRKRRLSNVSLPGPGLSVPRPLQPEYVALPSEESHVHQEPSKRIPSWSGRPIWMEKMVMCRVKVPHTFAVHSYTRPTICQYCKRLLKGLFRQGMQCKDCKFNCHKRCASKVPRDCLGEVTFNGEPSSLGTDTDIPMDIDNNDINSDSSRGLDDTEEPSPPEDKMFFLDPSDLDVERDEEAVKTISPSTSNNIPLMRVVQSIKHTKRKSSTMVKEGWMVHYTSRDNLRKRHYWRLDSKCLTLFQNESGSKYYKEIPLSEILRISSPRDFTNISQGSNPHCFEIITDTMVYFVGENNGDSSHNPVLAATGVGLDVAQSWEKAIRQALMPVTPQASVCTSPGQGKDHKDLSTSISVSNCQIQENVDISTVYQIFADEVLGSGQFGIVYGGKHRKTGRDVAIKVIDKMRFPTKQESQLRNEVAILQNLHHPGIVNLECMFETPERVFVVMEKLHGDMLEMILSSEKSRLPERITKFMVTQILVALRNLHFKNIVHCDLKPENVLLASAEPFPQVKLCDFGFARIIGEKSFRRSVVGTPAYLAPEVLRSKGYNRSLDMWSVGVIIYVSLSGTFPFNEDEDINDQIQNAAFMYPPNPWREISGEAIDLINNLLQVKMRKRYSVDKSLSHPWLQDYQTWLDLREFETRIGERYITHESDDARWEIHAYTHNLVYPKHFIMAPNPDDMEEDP
Sequence of UniProt Q9UF33 (whole entry, looked up): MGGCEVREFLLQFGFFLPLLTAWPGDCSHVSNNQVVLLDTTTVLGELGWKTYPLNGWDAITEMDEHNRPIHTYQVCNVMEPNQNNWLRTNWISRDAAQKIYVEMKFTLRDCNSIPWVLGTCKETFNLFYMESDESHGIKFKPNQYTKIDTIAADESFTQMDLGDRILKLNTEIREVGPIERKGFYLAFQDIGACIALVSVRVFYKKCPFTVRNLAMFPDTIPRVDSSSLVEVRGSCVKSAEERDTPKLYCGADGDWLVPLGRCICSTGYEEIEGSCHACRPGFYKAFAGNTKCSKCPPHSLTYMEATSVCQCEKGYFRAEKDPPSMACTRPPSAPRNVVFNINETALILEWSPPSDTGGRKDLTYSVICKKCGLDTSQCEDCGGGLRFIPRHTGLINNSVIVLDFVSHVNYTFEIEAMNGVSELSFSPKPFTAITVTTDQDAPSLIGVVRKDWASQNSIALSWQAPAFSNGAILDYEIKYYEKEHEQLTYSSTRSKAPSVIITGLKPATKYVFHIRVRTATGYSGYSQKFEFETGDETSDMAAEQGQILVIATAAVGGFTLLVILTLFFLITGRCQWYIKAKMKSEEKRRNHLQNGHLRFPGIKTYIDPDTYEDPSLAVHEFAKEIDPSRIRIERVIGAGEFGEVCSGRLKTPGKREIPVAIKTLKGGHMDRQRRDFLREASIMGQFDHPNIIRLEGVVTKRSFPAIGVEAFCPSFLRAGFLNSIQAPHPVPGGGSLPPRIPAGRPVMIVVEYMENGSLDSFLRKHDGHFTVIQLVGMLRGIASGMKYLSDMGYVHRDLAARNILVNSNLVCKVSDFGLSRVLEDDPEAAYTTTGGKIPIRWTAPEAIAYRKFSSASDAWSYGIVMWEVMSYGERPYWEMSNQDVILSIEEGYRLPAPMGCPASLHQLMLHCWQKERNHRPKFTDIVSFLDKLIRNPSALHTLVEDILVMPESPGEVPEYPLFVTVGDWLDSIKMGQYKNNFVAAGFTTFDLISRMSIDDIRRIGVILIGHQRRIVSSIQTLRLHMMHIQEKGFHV

Series 1 — observed: enzyme activity; mode: inhibitor; concentration: 0.5 µM; baseline: control; measurement: remaining activity
Target: Receptor-interacting serine/threonine-protein kinase 2 (RIPK2, Homo sapiens, UniProt O43353)
Sequence of UniProt O43353 (whole entry, looked up): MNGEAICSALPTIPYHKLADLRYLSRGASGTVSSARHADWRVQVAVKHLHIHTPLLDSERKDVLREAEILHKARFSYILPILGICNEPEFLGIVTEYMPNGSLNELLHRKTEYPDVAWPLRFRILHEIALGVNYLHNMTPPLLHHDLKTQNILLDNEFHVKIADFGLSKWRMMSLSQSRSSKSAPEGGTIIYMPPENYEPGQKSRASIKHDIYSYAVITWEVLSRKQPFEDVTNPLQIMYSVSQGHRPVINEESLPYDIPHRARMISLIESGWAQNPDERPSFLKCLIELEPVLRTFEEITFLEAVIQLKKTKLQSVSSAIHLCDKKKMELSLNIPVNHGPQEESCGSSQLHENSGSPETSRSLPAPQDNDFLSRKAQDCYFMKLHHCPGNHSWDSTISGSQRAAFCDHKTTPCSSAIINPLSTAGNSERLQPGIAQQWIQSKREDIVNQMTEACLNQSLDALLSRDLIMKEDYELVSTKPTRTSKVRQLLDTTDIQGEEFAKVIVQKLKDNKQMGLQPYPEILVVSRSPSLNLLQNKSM
CC(C)[C@H](CO)Nc1nc(Nc2cc(N)cc(Cl)c2)c2ncn(C(C)C)c2n1: 87.7%
COc1ccc(CNC(=O)Nc2ncc([N+](=O)[O-])s2)cc1: 82.8%
Cn1sc(=O)n(Cc2ccccc2)c1=O: 85.4%
Cc1ccc(NC(=O)c2ccc(CN3CCN(C)CC3)cc2)cc1Nc1nc(-c2cccnc2)cs1: 108%
O=c1c2ccccc2[nH]c(=S)n1CCN1CCC(=C(c2ccc(F)cc2)c2ccc(F)cc2)CC1: 93.1%
Nc1ncnc2n[nH]c(Nc3ccc(F)cc3)c12: 68.7%
O=C1NC(=O)C(c2cn(CCCO)c3ncccc23)=C1c1cnccn1: 90.9%
CO[C@H]1C[C@@H]2CC[C@@H](C)[C@@](O)(O2)C(=O)C(=O)N2CCCC[C@H]2C(=O)O[C@H]([C@H](C)C[C@@H]2CC[C@@H](O)[C@H](OC)C2)CC(=O)[C@H](C)/C=C(\C)[C@@H](O)[C@@H](OC)C(=O)[C@H](C)C[C@H](C)/C=C/C=C/C=C/1C: 90.5%
COc1cc2nccc(Oc3ccc(NC(=S)NC(=O)c4ccccc4C)cc3)c2cc1OC: 89.2%
Cn1c2ccccc2c2c3c(c4c5ccccc5n(CCC#N)c4c21)CNC3=O: 55.1%
Cc1nc(-c2ccccc2)c(-c2ccncc2)o1: 87.4%
COc1ccc(C(=O)Nc2sc3c(c2C(N)=O)CCCC3)cc1OC: 76.5%
N#CC(C#N)=C(N)/C(C#N)=C/c1ccc(O)cc1: 95.5%
C#Cc1cccc(Nc2ncnc3cc(OCCOC)c(OCCOC)cc23)c1: 57.9%

Series 2 — cell line: mouse MPNST tumor cells; technique: high-content nuclear imaging; item: cell number; concentration: 10 µM; time: 12 h; notes: mean of 2 replicates; baseline: plate mean; reading: higher = more cells; measurement: nuclei count
O=[N+]([O-])c1cc(Cl)ccc1S(=O)(=O)N1CCN(Cc2ccccc2)CC1: -0.886 z-score
NCCCC(O)(P(=O)(O)O)P(=O)(O)O: 0.242 z-score
Cc1ccc2c(c1)c1c3n2CCNC3CCC1 (stereo not shown): 0.944 z-score
c1ccc(Cn2c(-c3ccc(OC[C@H](C4CCNCC4)n4c(-c5ccccc5)nc5ccccc54)cc3)nc3ccccc32)cc1: -5.03 z-score
COc1ccccc1C1(O)CCN(CCCn2c3ccccc3c3ccccc32)CC1: -6.56 z-score
CCN(CC)CCNc1ccc(CO)c2sc3ccccc3c(=O)c12: -5.02 z-score
COc1cc2c(NC3CCN(C)CC3)nc(N3CCCN(C)CC3)nc2cc1OCCCN(C)C: 0.491 z-score
Clc1ccc2nsnc2c1NC1=NCCN1: 0.858 z-score and 1.85 z-score
Cc1c(C)c2c(c(C)c1O)CCC(C)(C(=O)O)O2 (stereo not shown): 1.02 z-score
O=C1c2ccccc2-c2nc3nonc3nc21: -5.14 z-score
C[C@@H]1C[C@H]2[C@@H]3C[C@H](F)C4=CC(=O)C=C[C@]4(C)[C@@]3(F)[C@@H](O)C[C@]2(C)[C@@]1(O)C(=O)CO: 4.02 z-score

Series 3 — observed: cell-free assay; technique: competition with immobilised ligand; concentration: 1 µM; measurement: remaining binding
Structure (SMILES): CCS(=O)(=O)c1cc2cc(C[C@](O)(CC(C)(C)c3ccc(F)cc3C(N)=O)C(F)(F)F)[nH]c2cn1
NEK6 (Homo sapiens, UniProt Q9HC98): 100%
PRKD3 (Homo sapiens, UniProt O94806): 99%
MAP2K7 (Homo sapiens, UniProt O14733): 99%
PAK4 (Homo sapiens, UniProt O96013): 100%
FRK (Homo sapiens, UniProt P42685): 80%
MTOR (Homo sapiens, UniProt P42345): 77%
EPHA6 (Homo sapiens, UniProt Q9UF33): 100%

Series 4 — observed: binding; mode: competitor; technique: NanoBRET; cells: HEK293; measurement: normalized BRET
Compound: CC(=O)N1CCN(c2nc(OC[C@@H]3CCCN3C)nc3c2CCN(c2cccc4cccc(Cl)c24)C3)C[C@@H]1CC#N
KRAS G12D: GTPase KRas (KRAS, Homo sapiens, UniProt P01116, G12D)
GTPase KRas (KRAS, Homo sapiens, UniProt P01116, Q61H); 33.3 µM: 14.1% and 10.2% and 9.1%
KRAS G12D; 11.1 µM: 82.8% and 87.5% and 85.3%
GTPase KRas (KRAS, Homo sapiens, UniProt P01116, Q61L); 11.1 µM: 20.9% and 26% and 27.6%
KRAS G12D; 45.7 nM: 93.9% and 93.7% and 95.8%
KRAS G12D; 1.24 µM: 97.4% and 87.4% and 93.2%
KRAS G12D; 15.2 nM: 91.3% and 98.3% and 99.3%
GTPase KRas (KRAS, Homo sapiens, UniProt P01116, Q61R); 3.7 µM: 105% and 83.4% and 94.3%
GTPase KRas (KRAS, Homo sapiens, UniProt P01116, G13D); 1.24 µM: 49.8% and 47.6% and 46.8%

For quick reference, copied from above (series 2):
CCN(CC)CCNc1ccc(CO)c2sc3ccccc3c(=O)c12: -5.02 z-score
COc1cc2c(NC3CCN(C)CC3)nc(N3CCCN(C)CC3)nc2cc1OCCCN(C)C: 0.491 z-score
Clc1ccc2nsnc2c1NC1=NCCN1: 0.858 z-score and 1.85 z-score
